Experimental data collected from several papers.
Each line is one published result; not all experiments were run side by side.
T1: RNA aptamer; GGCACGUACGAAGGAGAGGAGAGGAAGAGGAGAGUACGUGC
T2: RNA aptamer; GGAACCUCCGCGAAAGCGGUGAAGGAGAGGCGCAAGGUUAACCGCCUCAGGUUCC
T3: RNA aptamer, L4 loop replaced by UUCG; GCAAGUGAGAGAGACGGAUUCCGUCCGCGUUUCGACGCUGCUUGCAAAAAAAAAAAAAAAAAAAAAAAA
T4: RNA aptamer; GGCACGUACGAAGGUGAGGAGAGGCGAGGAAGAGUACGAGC
T5: RNA aptamer; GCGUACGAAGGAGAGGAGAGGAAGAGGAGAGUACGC
T6: RNA aptamer; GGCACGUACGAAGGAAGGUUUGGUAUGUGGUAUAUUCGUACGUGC
T7: RNA aptamer; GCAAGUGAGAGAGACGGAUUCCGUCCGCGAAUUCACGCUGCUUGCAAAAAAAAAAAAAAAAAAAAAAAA

SMILES | target | assay | conditions | endpoint | result
COc1ccc(-c2ccc3c(c2)C(=Cc2sc4ccccc4[n+]2CC(=O)NCCOCCOCCOCCNC(=O)CCCC[C@@H]2SC[C@@H]4NC(=O)N[C@@H]42)C=CN3C)cc1 | T1, RNA aptamer | fluorescence titration |  | Kd | 0.2 nM
CN(C)c1ccc2c(-c3ccccc3C(=O)[N-]S(=O)(=O)N(C)C)c3ccc(=[N+](C)C)cc-3oc2c1 | T2, RNA aptamer | fluorescence titration, quadratic fit | Na+ 1 M, no Mg2+, together with: EDTA 1 mM | Kd | 110 nM
Fc1ccc(Nc2nc(NCc3ncccn3)nc(Nc3ccccc3)n2)cc1 | T3, RNA aptamer, L4 loop replaced by UUCG | SPR | 25 °C, read off a plot | Kd | 25 nM
CN1C=CC(=Cc2sc3ccccc3[n+]2C)c2ccccc21 | T4, RNA aptamer | fluorescence titration |  | Kd | 1.04 nM
CN1C=C/C(=C\c2sc3ccccc3[n+]2CC(=O)NCc2ccccc2-n2cccn2)c2ccccc21 | T5, RNA aptamer | X-ray crystallography |  | binding | binds
CN(C)c1ccc2c(-c3cc(C(=O)O)ccc3C(=O)[N-]S(=O)(=O)N(C)C)c3ccc(=[N+](C)C)cc-3oc2c1 | T2, RNA aptamer | fluorescence titration, quadratic fit | room temperature, K+ 125 mM, together with: Mg2+ 1 mM | Kd | 120 nM
CN1C=C/C(=C\c2sc3ccccc3[n+]2CC(=O)NCc2ccccc2F)c2ccccc21 | T5, RNA aptamer | X-ray crystallography |  | binding | binds
COc1ccc(-c2ccc3c(c2)C(=Cc2sc4ccccc4[n+]2C)C=CN3C)cc1 | T6, RNA aptamer | fluorescence titration |  | Kd | 4.89 nM
CN1C=C/C(=C\c2sc3ccccc3[n+]2CC(=O)NCc2ccccc2)c2ccccc21 | T5, RNA aptamer | fluorescence titration | apparent | Kd | 0.27 nM
Fc1ccc(Nc2nc(NCc3ncccn3)nc(Nc3ccc(F)cc3)n2)cc1 | T7, RNA aptamer | SPR | 25 °C | Kd | 12 nM

Some of these lines once more:
SMILES | target | assay | conditions | endpoint | result
COc1ccc(-c2ccc3c(c2)C(=Cc2sc4ccccc4[n+]2CC(=O)NCCOCCOCCOCCNC(=O)CCCC[C@@H]2SC[C@@H]4NC(=O)N[C@@H]42)C=CN3C)cc1 | T1, RNA aptamer | fluorescence titration |  | Kd | 0.2 nM
